Experimental data of several laboratories.
Numbered parts are unrelated; each lists some results of a single study. Changes are numbered by the printed parent chain.

Study 1
Target: Interferon regulatory factor 3, full length, phosphomimetic (IRF3, Homo sapiens, UniProt Q14653, residues 1-427, S386D/S396D/S398D/S402D/T404D/S405D)
Chain of UniProt Q14653 (whole entry, unmodified, looked up): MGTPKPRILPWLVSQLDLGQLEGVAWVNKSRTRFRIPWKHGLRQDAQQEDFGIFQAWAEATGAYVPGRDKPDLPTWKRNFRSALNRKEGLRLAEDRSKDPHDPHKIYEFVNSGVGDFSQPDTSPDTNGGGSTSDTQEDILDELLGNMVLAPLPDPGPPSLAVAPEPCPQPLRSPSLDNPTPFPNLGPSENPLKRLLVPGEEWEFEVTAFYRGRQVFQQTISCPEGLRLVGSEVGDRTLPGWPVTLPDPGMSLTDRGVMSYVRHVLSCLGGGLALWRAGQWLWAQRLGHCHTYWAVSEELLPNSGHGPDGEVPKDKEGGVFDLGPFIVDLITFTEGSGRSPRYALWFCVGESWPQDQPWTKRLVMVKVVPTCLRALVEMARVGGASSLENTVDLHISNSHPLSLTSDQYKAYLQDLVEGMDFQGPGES
Method: protein-binding microarray
Form: double-stranded DNA, one strand shown
Medium: in vitro
Concentration: 2540 nM top
Setting: 60-bp whole probe
Added: salmon DNA 0.4 mg/ml
Reference: random background probes
Reading: higher = stronger binding
All sequences stand within: GCCTAGCAC … GTCTTGATTCGCTTGACGCTGCTG
| Oligonucleotide | fitted relative affinity |
| --- | --- |
| GACGGTATCCTTCTCCTGGCGTGCTAG | 7.43 z-score |
| TTAGATTTCGGGATTGGATTAGTGCTA | 1.61 z-score |
| AAGGTAGCACTTCACAGCAAGTGCTAG | -0.00556 z-score |
| TCCTCTTTACTGCTCCACACGTGCTAG | 1.28 z-score |
| GACGGTCTCGGACTGGGGCCGTGCTAG | -0.0434 z-score |
| TTAGATCTCAGTCTCTATTAGTGCTAG | 0.408 z-score |
| GACGGTTTCGATTTCGGGACGTGCTAG | 7.89 z-score |
| TTTTTTTTTTTTTGGAATGTGTGCTAG | 1.51 z-score |
| TTACGTTCCGGTTTCGGTTAGTGCTAG | 6.97 z-score |

Study 2
Target: RING finger protein unkempt homolog, zinc fingers 1-6, GST-SBP tag (UNK, Homo sapiens, UniProt Q9C0B0, residues 30-357)
Chain of UniProt Q9C0B0 (30-357, looked up): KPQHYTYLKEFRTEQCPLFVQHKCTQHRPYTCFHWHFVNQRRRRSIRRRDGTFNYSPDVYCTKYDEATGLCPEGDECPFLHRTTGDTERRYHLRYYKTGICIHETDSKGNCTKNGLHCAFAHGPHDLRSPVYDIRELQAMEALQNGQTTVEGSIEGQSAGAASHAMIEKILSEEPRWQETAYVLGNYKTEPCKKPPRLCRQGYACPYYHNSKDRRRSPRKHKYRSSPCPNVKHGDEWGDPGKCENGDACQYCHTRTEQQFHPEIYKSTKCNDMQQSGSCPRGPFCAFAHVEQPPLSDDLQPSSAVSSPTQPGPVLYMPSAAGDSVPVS
Method: RNA Bind-n-Seq
Form: RNA
Medium: in vitro
Concentration: not given
Setting: RNA with constant flanks, ends assumed
Reference: input RNA pool
Reading: higher = stronger binding
| Oligonucleotide | bound/input enrichment [ratio] |
| --- | --- |
| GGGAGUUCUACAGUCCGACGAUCUCAAUAACCUUUUCAGAUGAAAAUGAUGAUCAGGAUUUUGAAUUAUGGGAUGAUGCCGGAUUAAACAUUCCCAAACCCCCAGACUUGUUACAACUUUACCGAGACUUUGGAAAUCAUCAACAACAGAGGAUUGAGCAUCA | 0.139 |
| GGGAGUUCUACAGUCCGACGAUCCCAUGGGGAUGCUCUGGGGAGUGGCUGGACACUCAGCAUUGCUUCAUUUAUGACUUUGACAACCGACCGGCUUCUGGGGGUUUUUGUUUCUGUUUUUUUAAUUUAAUGAUAUUAAAACUUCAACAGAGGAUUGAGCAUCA | 0.222 |
| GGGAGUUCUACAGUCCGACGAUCGAGCCAGAGGAAGAAGAAGAGGAGAAGGAAGGGAAUGCCACUGUGAGUUUCUCACAGGCCCCCGCCGAGUUCACCAGCAAUGGAAACCUUUUUACCAGCAUGUCCUACAGCUCUGAUUCUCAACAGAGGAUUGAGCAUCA | 0.116 |
| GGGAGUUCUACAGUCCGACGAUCGCUGGAAACGGGCGGCGGCUCCACUUAGGGAUUCCUGAAGCAGUGUUUGUGGAAGAUGCCGAUUCUUUCAUGAAGCAGCCUGGGAAUGAGACUGCAGAUACAGUGUUAAAGAAGCUGGAUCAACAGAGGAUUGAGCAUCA | 0.184 |
| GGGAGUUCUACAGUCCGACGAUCCAGAAAAUCGAUGAGCUCUUCUCUGGGAAGCUGUACCUCAUUGGAAUUGCAGCCAUUGUGGCCGCUGUCAUUAUGAUCUUUGAGAUGAUUCUGAGCAUGGUGCUGUGCUGUGGCAUCCGGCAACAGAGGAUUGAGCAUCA | 0.143 |
| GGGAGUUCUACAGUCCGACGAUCACCAGCACAUUUUCUGAAUACACAGUUGUGGCUGAUAUCUCUGUUGCUAAAAUAGAUCCUUCCGCACCUUUGGAUAAAGUCUGCCUUCUAGGUUGUGGCAUUUCAACCGGUUAUGGUGCUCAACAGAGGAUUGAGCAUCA | 0.902 |
| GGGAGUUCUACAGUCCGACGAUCAGCGACAGAAAAAGGGAAGGGUGUCUCAUCCCCCUUCCUCCUCUCCUCCCUGUCCUGAGCCUCCGCCAUGGCCGAGGCAGGGGCUGGGCUGAGCGAGACCGUCACUGAGACAACGGUUACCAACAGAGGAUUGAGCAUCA | 0.213 |

Study 3
Target: CCNB1, cyclin fold, Cln2 fusion (human)
Method: yeast growth competition, sequencing
Medium: yeast
Setting: strong parent motif
Reference: not given
Reading: higher = stronger binding
Starting sequence: E2F1 docking peptide (human); PPVKRRLDLETDH; partner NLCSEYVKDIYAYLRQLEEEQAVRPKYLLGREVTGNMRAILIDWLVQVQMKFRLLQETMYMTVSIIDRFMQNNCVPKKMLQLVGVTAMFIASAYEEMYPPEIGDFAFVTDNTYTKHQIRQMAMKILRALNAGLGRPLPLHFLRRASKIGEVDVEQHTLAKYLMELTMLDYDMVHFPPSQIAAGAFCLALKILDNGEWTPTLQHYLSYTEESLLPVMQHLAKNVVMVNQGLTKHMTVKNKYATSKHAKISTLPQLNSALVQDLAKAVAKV
| Variant | normalised enrichment score |
| --- | --- |
| PPVKRRLELETDH [D8E] | 0.802 |
| PPVKRRLDLETTH [D12T] | 0.582 |
| PPVKRRLILETDH [D8I] | 1.71 |
| PPVKRRLTLETDH [D8T] | 1.52 |
| PPVCRRLDLETDH [K4C] | 3.01 |
| FPVKRRLDLETDH [P1F] | 1.8 |
| PPVKRRLDLDTDH [E10D] | 2.24 |
| PPVKRRGDLETDH [L7G] | 0.386 |
| PPVKRRLDLETDL [H13L] | 1.68 |
| PPVKRRTDLETDH [L7T] | 0.868 |
| PPVKRRLDLETDC [H13C] | 1.67 |
| PPVKRCLDLETDH [R6C] | 0.998 |
| PPVWRRLDLETDH [K4W] | 0.272 |

Further values, each from its own experiment
| Substance | target | assay | system | conditions | scale | quantity | result |
| --- | --- | --- | --- | --- | --- | --- | --- |
| PhoQ, residues 284 288 289 292 302 303 TLMATV | PhoP, residues 12 14 15 18 19 LQHIR (Escherichia coli, UniProt P23836) | Sort-seq, item: YFP reporter | E. coli | PhoQ-PhoP variant library, added: 10 µM Mg2+ | reference: high Mg2+ state, higher = stronger signaling | fold induction | 4.28 |

Repeated from above (study 3):
| Variant | normalised enrichment score |
| --- | --- |
| PPVKRRLDLETDC [H13C] | 1.67 |
| PPVKRCLDLETDH [R6C] | 0.998 |
| PPVWRRLDLETDH [K4W] | 0.272 |
